Assay results pooled from the literature.
Numbered parts are unrelated; each lists some results of a single study.

Set 1
Target: Histone acetyltransferase KAT6A, both winged helices, GST fusion (KAT6A, Homo sapiens, UniProt Q92794, residues 1-181)
Technique: protein binding microarray
Form: double-stranded DNA, one strand shown
Sample: in vitro
Tested at: not given
Notes: 8-mer, flanks averaged, mean of 2 arrays, mostly near background
Relative to: not given
Reading: higher = stronger binding
Quantity: E-score
Residues (chain): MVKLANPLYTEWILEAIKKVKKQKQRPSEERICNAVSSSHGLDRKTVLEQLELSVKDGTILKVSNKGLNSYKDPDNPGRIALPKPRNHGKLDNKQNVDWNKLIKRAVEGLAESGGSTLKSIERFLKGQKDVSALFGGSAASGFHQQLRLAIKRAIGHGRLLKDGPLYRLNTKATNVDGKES
CGCAACCG: 0.285
CCTCCCCA: -0.0719
GACGAACC: 0.0862
AGATCACC: -0.00304
CGGTGAAG: 0.109
GACTGGAC: 0.0416
CGACTAGA: -0.109
ACGCCCTG: 0.102
CAACCGTG: 0.0487
CAAATCAA: -0.151
AAGAGGTA: -0.14
ACTAAACT: -0.14
ACTTTTGA: 0.0346
GCTGGTTA: -0.108
AAGGCCCA: -0.129
ACCCGTGA: 0.21
CCACGACG: 0.02
GTAGGGGA: -0.171
GGGGTGTA: 0.00129
ATAATAGC: -0.0125
AGTATCTA: -0.0714
GAATCAAC: 0.0595

Set 2
Target: Ras GTPase-activating protein-binding protein 1, RRM domain (G3BP1, Homo sapiens, UniProt Q13283)
UniProt Q13283, sequence (whole entry, looked up): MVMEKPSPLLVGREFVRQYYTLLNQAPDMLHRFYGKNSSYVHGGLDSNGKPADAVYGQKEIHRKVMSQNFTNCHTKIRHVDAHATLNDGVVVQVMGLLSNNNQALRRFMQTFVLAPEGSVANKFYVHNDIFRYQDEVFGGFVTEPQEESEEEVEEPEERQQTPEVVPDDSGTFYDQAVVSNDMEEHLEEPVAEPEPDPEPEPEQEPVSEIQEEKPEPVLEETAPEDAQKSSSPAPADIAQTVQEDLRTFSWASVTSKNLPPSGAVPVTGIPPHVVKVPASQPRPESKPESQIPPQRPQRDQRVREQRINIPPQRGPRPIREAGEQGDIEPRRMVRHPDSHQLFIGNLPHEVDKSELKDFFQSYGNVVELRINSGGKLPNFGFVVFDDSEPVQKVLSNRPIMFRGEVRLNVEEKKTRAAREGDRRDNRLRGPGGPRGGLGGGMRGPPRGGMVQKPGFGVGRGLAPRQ
Technique: RNA Bind-n-Seq
Form: RNA
Sample: in vitro
Tested at: 1 µM
Notes: whole 134-nt RNA, ends assumed
With: 150 mM KCl
Relative to: input library
Reading: higher = stronger binding
Quantity: log2 enrichment
Constant ends, left off below: GGGAGUUCUACAGUCCGACGAUC … UGGAAUUCUCGGGUGUCAAGG
UCAAGUCCUGUGCUACACAUCGUAUGUACCGAAUCGGGGAAGGGGAAGGAAGGGGAAAGUAUUAUGUUACGCCGUUCGGAUCUGCACUUC: 0.35
UCAAGUCCUGUGCUACACAUCGUAUGUACCGAAUCGGUUUUUGGUGGAAAAAGGAAAGUAUUAUGUUACGCCGUUCGGAUCUGCACUUCC: -0.076
ACCAUGCAGGUGGGCAUCUUUGGGAUGUGGGGCAAGGGGGGGAUAGGGAGGGGGGUAACACUUUGGGAACAGGUGGUCCCAGGUCGUUUC: -0.499
GCAGGAAGUAAAAACAAAUGGAAAUGCUUCGGAUAGUGGCAGGGGUGGGGGUUGCUAAGGAAAGGGUGGGAUGGAAAUGGGUAAAGAGUU: 1.17
CCUCAAGUCCUGUGCUACACAUCGUAUGUACCGAAUCGGUUUGGAGGUUUGGAAAGUAUUAUGUUACGCCGUUCGGAUCUGCACUUCCAG: -0.258
UGGCCCUGGUGGCAUGCGGGGAGGAAGAGGUGGCCUCAAGGAUCGUGGUGGUCCCGGUGGAAUGUUCAGAGGUGGCCGUGGUGGAGACAG: 0.924
CACAGACAACACGCACCCACACAGACACAGAGGGAAGGGGUUGGGAUGGGGACAGGGUGCACAGAAGGGCGGGGUAGGACCCCAGCCCCU: 0.212
CCUCAAGUCCUGUGCUACACAUCGUAUGUACCGAAUCGGAGGAGGGGAGGGGAAAGUAUUAUGUUACGCCGUUCGGAUCUGCACUUCCAG: -0.218
AGUCCUGUGCUACACAUCGUAUGUACCGAAUCGGGAAAGGGUUUUUUUGGGAAAGGGAAAGUAUUAUGUUACGCCGUUCGGAUCUGCACU: 0.389

Set 3
Target: RING finger protein unkempt homolog, zinc fingers 1-6, GST-SBP tag (UNK, Homo sapiens, UniProt Q9C0B0, residues 30-357)
UniProt Q9C0B0, sequence (30-357, looked up): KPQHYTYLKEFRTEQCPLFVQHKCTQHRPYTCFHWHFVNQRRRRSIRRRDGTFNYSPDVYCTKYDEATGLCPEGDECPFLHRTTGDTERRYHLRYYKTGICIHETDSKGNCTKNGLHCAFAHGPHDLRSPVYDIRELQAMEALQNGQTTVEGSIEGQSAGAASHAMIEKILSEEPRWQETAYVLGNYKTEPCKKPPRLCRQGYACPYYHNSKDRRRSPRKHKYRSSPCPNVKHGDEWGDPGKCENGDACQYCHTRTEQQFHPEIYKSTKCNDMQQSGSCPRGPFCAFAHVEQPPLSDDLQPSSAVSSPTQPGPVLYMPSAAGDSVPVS
Technique: RNA Bind-n-Seq
Form: RNA
Sample: in vitro
Tested at: not given
Notes: RNA with constant flanks, ends assumed
Relative to: input RNA pool
Reading: higher = stronger binding
Quantity: bound/input enrichment
Constant ends, left off below: GGGAGUUCUACAGUCCGACGAUC … CAACAGAGGAUUGAGCAUCA
CCAGAUGGGACUAGCAGAUUUACCUGCAAAGGAAAGUCUGUUUUUCACUUCAUGGGGACCCGCACAUUUUCCGAGUACACAGUUGUGGCUGACAUCUCUGUUGCUAAAAUCGAUCCUUCG: 0.12 ratio
UUUUCUGUAUUAAGCAAAUUCUAAUUUUUAUAUGUGGUUUUUGACUGUGGGGGUUGUCUCUACCGUUUGUCUUACUGUUGAAAUGACAUGGUUAUCCAAAGCCUCUAGUGUCCGUCAGGU: 1.1 ratio
CUUAGUCGUGUCACUCUUCUUGAAACAGAAAUGCUUUUGUCUAAAAAGAAUGAUGAAUUUACCGAGUUUAAUGAAGUUAGUGAAGACUACGCUUCUUGUAGUGACAUGGACCUUCUGAAU: 0.17 ratio
GCACUUCUCAAAUACUGGCCAAAGACUCACAGUCCAAAAGAAGUAAUGUUCUUAAACGAAUCCGAAGAGAUUUUAGAUGUCAUUGAACCAUCAGAAUUUGUGAAGAUCAUGGAACCCCUC: 0.175 ratio
CUCCUCCGUACUUCUCUCUGAAAGGAAUUUUGUCGUGUUAACCCUAAAGAGAGUGUCCUUAACCGCAGUGAGCGCUUGGAAGCUUCUCCACUGGUACAUUGGGUUUUCUGUUGGGUGAGU: 0.244 ratio
CCAACUUAUGAGACUGGAUCUCUUUCCUUUGCAGGAGACGAGAGAAUAUGAAGUUUCCAUCCCGGUGGGAGCAGCCUGGGGAUGCACACGCAGUCCUGCAUCGCAGGCCAGCGGCAGGGC: 0.138 ratio
UGUUUGUUUGUUUGUAGUCUUGAUGCUCUCCUGUGGUUUACUUCCCUUCUGAUAGGACACUACCGCCAGUCUCAGCACUCGUAAGUGCGGAGGGCCACAUCCAGGAAAGAAGGCAGAGCC: 0.312 ratio
UCCUCGUCCUCUGACGUCAGUGAGGGCAGGGCAGCUGAAGCAUCUCAGGGAUUUAGAUUUCUCCGGCGAAGAUGGGGGUUGUCGUCGCUCAGCCAAAAUCAUAGCUCUGAACCAGAGGCA: 0.211 ratio

Set 4
Target: Max-binding protein MNT, bHLH-zipper, MAX partner unstated (MNT, Homo sapiens, UniProt Q99583, residues 220-300)
Technique: protein-binding microarray
Form: double-stranded DNA, one strand shown
Sample: in vitro
Tested at: not given
Notes: k-mer, scored over probes, only values ≥0.25
Reading: higher = stronger binding
Quantity: E-score
Residues (chain): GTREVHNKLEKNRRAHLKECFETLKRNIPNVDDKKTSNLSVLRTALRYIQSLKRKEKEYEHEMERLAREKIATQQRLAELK
AAAACACG: 0.313
GCGCAACC: 0.303
CACGGGGG: 0.384
AACGTGAG: 0.321
GGCGGGCA: 0.251
AGGCACGA: 0.268
TGGTCACA: 0.251
CAACACGA: 0.277
AGTATGGC: 0.279
ACATGCTC: 0.401
GGCGTGAC: 0.35
GCGGACAC: 0.251
AGACGCAT: 0.308
CAACCATG: 0.338
ACATGAGT: 0.299
AAAGCACG: 0.301
ATGTGGTG: 0.325
GCATGGGA: 0.353
CGTTGTCC: 0.275
CCCGCCAC: 0.341
CACATGAC: 0.447
GCCACGCC: 0.355
CATGTTGC: 0.365
CCACGTTC: 0.389
CACGAGGA: 0.463

Repeated from above (set 2):
UCAAGUCCUGUGCUACACAUCGUAUGUACCGAAUCGGUUUUUGGUGGAAAAAGGAAAGUAUUAUGUUACGCCGUUCGGAUCUGCACUUCC: -0.076
ACCAUGCAGGUGGGCAUCUUUGGGAUGUGGGGCAAGGGGGGGAUAGGGAGGGGGGUAACACUUUGGGAACAGGUGGUCCCAGGUCGUUUC: -0.499
GCAGGAAGUAAAAACAAAUGGAAAUGCUUCGGAUAGUGGCAGGGGUGGGGGUUGCUAAGGAAAGGGUGGGAUGGAAAUGGGUAAAGAGUU: 1.17
CCUCAAGUCCUGUGCUACACAUCGUAUGUACCGAAUCGGUUUGGAGGUUUGGAAAGUAUUAUGUUACGCCGUUCGGAUCUGCACUUCCAG: -0.258
